Experimental data gathered from unrelated publications.
Each numbered part is a random draw from the data of one study; scales do not carry over between parts.
Sequence of UniProt Q9Y2X8 (whole entry, looked up): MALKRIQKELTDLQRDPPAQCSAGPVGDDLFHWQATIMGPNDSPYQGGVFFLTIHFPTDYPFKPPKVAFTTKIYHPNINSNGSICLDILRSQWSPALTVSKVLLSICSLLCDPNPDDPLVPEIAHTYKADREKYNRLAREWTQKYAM
Sequence of UniProt Q9H832 (whole entry, looked up): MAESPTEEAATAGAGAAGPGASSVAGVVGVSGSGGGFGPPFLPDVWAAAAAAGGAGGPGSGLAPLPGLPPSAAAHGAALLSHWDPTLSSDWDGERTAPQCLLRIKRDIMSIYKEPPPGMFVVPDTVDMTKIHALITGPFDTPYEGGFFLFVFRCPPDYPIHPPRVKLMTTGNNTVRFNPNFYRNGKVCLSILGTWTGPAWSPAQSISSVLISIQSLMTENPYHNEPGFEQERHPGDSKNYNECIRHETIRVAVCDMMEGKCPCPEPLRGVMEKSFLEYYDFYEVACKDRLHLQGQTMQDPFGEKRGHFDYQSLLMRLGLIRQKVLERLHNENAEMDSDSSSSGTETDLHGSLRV

Series 1 — method: protein binding microarray; form: double-stranded DNA, one strand shown; sample: in vitro; tested at: not given; reference: not given; direction: higher = stronger binding
Target: Histone acetyltransferase KAT6A, winged helix 1, GST fusion (KAT6A, Homo sapiens, UniProt Q92794, residues 1-85)
Setting: 8-mer, flanks averaged, mean of 2 arrays, mostly near background
Construct (chain): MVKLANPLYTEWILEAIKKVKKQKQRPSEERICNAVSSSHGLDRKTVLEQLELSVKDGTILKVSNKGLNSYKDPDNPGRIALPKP
Sequence	E-score
AAATGCGC	0.335
GTTTATCA	0.0297
GTTACTAA	-0.0479
TCTATAAA	-0.281
AAAACTCG	-0.104
CATTGGGA	-0.255
AGCTTTGC	-0.0354
CCGGAGTA	0.205
AGCTTAAT	-0.152
CCCACTCA	-0.229
AAATTGGA	-0.272
CCTCCAAC	-0.218
GATCAGAC	-0.075
TGACGACA	-0.256
ACGGACCA	0.168
AGGACTCG	-0.0904
CATTATAC	-0.00035
CGGGCCTC	0.243
AGCCAGGG	-0.104
TACCTCAA	-0.172
ACTCGCGC	0.401
AACAGTGG	-0.226
CCTGTTTA	0.051
ATCGGAAC	-0.131
AGACCACT	-0.261

Series 2 — method: competition protein-binding microarray; form: double-stranded DNA, one strand shown; sample: in vitro; tested at: 2 µM; together with: Pho4 competitor, 0.05 µM; direction: higher = stronger binding; shared flanks, not repeated: … GTCTTGATTCGCTTGACGCTGCTG
Target: Centromere-binding protein 1, full length, His-tagged (CBF1, Saccharomyces cerevisiae, UniProt P17106, residues 1-351)
Sequence of UniProt P17106 (whole entry, looked up): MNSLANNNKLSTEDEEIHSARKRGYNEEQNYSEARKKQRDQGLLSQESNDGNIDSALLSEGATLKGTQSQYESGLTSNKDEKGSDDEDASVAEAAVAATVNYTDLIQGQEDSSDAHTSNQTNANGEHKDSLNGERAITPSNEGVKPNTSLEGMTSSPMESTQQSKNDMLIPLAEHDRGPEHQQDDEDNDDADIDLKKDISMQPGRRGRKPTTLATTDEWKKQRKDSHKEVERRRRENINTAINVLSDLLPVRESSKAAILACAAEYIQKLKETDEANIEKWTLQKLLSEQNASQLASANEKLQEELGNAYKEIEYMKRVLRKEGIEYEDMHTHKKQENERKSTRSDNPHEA
Setting: whole 60-bp probe, lowest competitor level
Sequence	fluorescence intensity [a.u.]
AAAGCGGTAATTTGTTGAGTGGGTGCAGATATCTAT	80.7
CATACCCAACCTTGTCACCCCACTTAAGATATTTGT	83.2
GGGCTTATGAGAGACCACGTGGTCTTGTGCTTTAGT	3190
CTACATCGAGGTAAACGCGTGTCGGGGTGCAAGCAT	93.1
GGGATCGCTATACTCCACGTGAAGTGACGCCTTGGA	366
CGGGGTTAAGTTTGCTGCGTGGGTGGCTTGCAGCAG	71.5
TCTCCACTCTTCCTCCACGTGGCCGTACTTTCCCCG	497
GTCTTGTCTCATTGAGTTGTGGGTGTCCCCACTTCA	95.9
AACCAGAGCCCAATAAACGTGGTCGTTGTCGAGTAG	96.6
CGGGGTTAAGTTTGTCATGTGGGTGGCTTGCAGCAG	151
CTTTCCCGATCTTTTCACGTGTGCTTAGCACATTTG	797
CGGGGTTAAGTTTGTGGTGTGGGTGGCTTGCAGCAG	68.8
AACGACACCGGCACCTTCGTGACGGCCAACTAATGG	65
AAAGCCGTTCTTCGTCACGTGACTCGAAGTTGTAGC	30700
CCCTAAAGTTTGGTGCACGTGGTTTTCTCTCGCTCT	2950
TCAATAAATAATGCTCGCGTGGCCGAATGGCAACGC	101
CGGCCCTTCTCACCCCCCGTGTTTCGCAAAGAACAA	130
TGCTGGCATTCTTATCTCGTGCTTTTATTAGTGGGC	319
AAAGGCCATCCATACTACGTGGGTACTCAATACCAT	62.4
CAGCAATGAATTTGGCTCGTGATGGGGGCCCAGGTC	205
CGTAGGGCTGATATCCACCTGATCGACAATGTCCAA	187
TGCGCAACAACTTGAGAGGTGGGTGTATGTCTAGAA	59.7

Series 3 — method: EMSA with sequencing; form: double-stranded DNA, one strand shown; sample: in vitro; tested at: 10 and 20 nM; reference: negative control set to 0; direction: higher = stronger binding
Target: Hepatocyte nuclear factor 3-alpha (Foxa1, Mus musculus, UniProt P35582, residues 1-468, full length assumed)
Sequence of UniProt P35582 (whole entry, looked up): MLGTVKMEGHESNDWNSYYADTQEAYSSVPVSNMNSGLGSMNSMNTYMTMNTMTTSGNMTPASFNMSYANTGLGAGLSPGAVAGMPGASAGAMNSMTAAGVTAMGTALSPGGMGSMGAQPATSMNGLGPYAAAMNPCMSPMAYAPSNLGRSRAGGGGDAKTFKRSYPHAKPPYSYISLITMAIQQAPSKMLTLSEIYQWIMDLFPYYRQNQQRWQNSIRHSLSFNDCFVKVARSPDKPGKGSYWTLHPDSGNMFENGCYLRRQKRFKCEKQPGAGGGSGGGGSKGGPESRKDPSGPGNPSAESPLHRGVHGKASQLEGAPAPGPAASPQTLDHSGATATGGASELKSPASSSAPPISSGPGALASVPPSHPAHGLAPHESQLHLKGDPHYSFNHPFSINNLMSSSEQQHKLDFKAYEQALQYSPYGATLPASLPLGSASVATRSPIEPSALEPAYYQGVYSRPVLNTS
Setting: whole designed probe, mean of two concentrations, ends assumed
Shared flanks, not repeated: GTGAGCGGTGCCCATTGATGGGGAAC … TTTCACTGGGATCGTGGGGAC
Sequence	normalised bound fraction
CTGTATGTCATCTTGCTCCTGGGCCACCTGACTGATGTTTAATGCCTGGATATTTGCTTTCACCTCTGCATGACCAAGCCTTGGCCAAGTCACTGTTGACTCAGTTGCAACATCTGTCCCCTGCTGAGGGCTGTTGTAGCTTTCATAGCTCACAGTCCAGCTTGAATCTAACCTTTTCTGTGGTCATTCAGAG	0.255 ratio
CTTTTTGGGGTGATGAAAATAATCTAAAATTGACTGTGGTGATTTCAGAGCTCTCAGTATGCTAAAAACCATGGACTTATCCCCTTAGAAAAAGTAATCTAAGAGTTATGAAAAAGAAAAAAAAAGACGTTTTAATTTCTATCACTGAGTGTGCACATGTTTTTAAAAAGTTTTTATTACTATAAACCAACCA	-0.0155 ratio
GCAGTTGAACTTAAATATAAAGTTGAGCTTAGATACAAAGGTTCTTTAGAACTTTAAAAGACATGGGTGAACAAAACCCAAACTAATCCTCTGATGTTTACTTAGAAACAAAAACCTAAATGAAATTCAAAATAGATATCTGAATCTAGATTTGTGTATAAACATTAGATTGAAAGACTAGGGTCTGGAACAG	0.463 ratio
GTAACTGTGAGATTTCTGAATTTACAACCTCCCTACAGGAAGTACCAGGTGGCCACGAAAGGCAGCATGGTCCCCATCTCTAATTAAGCTAATGTAATCTAGTGCCACAAGATGGCGCCAAACCACAGATGAAACTGACGCCAATTTGGATTCTTTGGGTGGATGGATCTCCCAGAACTTCCAGCTGGCTAGA	0.159 ratio
ATCTTCCCCCTCTTCCTTGCCCCACCAGCTCACCTACGGGGGTTATTTGCAGATAGGAAAATAAATAAAGCCGGCATTCGTTAACCCTCTTCACGCGCATACTGCTGTTTGCTCTGGATGAATCATGGTCCTTTGGCGACGCCAGGCTCCGGGAGAGCAAAGCACCGTGTCAGGGCCATGATCCGGGGTGGCC	0.351 ratio
AGATTCCAGCCAGCAGAATAGGAATTTCAGAATACGATAAGGAGATGTTAAGGAAGGTCAGGCAGTAAAAAGAGGTTTGCTGACTCATGTGGTTAGATGACTTAGCAAGTCAGGGAGAAGTCAATAGATTGCTCTCCTGTTTTACAGTCTTTAGGTGTGGGCCAGCCCAGGGCCATTGATAGTCATTTTAGCC	-0.0436 ratio
CTGCAACCATATTTTGAAGGCTATGAGCCTTTCCTTTTTCCTCAACACTGTATCCCCTTCCTGGCAATGTGCCTGGCACAGAAGAAATGCTCAGTAAATATTGGCTGAACAAACAGATGAATGTCTATAGCCCACTTTGCTGGGAGAAGTGGAAGGAGGAGAGATTCCATTGCATATTAGAATTCTGTGTCTT	0.351 ratio
CATTTTTCTATGAAGTTATAGTCACTTTCACATTTACTGCAAGATGTTTTTCGGATCTCTCCACTGCCGCCTTGTGGCTTTAGAACACAAATCTGTTTACTTTGTTTTGTGACATATTTGAATAAAACCATGTATCCTGTTTAGGGCTGGCAATGTGGTAGTGGGAGGGTTGGAAATTGGATACAAAAATTGA	0.336 ratio

Series 4 — method: RNA Bind-n-Seq; form: RNA; sample: in vitro; tested at: not given; setting: RNA with constant flanks, ends assumed; reference: input RNA pool; direction: higher = stronger binding
Target: RING finger protein unkempt homolog, zinc fingers 1-6, GST-SBP tag (UNK, Homo sapiens, UniProt Q9C0B0, residues 30-357)
Sequence of UniProt Q9C0B0 (30-357, looked up): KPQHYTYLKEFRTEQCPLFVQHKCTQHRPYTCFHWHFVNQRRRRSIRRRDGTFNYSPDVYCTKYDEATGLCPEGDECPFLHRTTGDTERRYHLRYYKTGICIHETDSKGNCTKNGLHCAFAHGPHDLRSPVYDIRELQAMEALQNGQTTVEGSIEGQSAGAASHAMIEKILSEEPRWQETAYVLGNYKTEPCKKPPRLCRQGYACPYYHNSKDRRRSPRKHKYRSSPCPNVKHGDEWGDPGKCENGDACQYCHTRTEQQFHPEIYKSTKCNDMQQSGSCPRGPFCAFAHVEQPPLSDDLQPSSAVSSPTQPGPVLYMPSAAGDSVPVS
Shared flanks, not repeated: GGGAGUUCUACAGUCCGACGAUC … CAACAGAGGAUUGAGCAUCA
Sequence	bound/input enrichment [ratio]
UACUUAAAUGAAAUAAAACCUCCCAUCAUACACUAUGACCUCAAACCAGGUAAUAUUCUUUCCGUAAAUGGUACAGCGUGUGGAGAGAUAAAAAUUACAGAUUUUGGUCUUUCGAAGAUC	0.242
GCAGCCCUGUCUGUUCGAAAUCUCUCUCCUUAUGUUUCCAACGAACUUUUGGAAGAGGCCUUCCGCCAGUUUGGUCCUAUUGAAAGGGCUGUUGUAAUUGUGGAUGAUCGCGGAAGAUCU	0.173
AGCUGUGCCUGCUAAAAUGGAUCAGUGAGAGAGGUUCCUGGACCUGUGAACUUUGCUGUUACCGAUACCAUGUUAUAGCCAUUAAAAUGAAACAACCUUGCCAGGUCUCAUUGUUCAUGA	0.332
CCUGGACUGACUGACCAGAAGACUGUCCCAACACCAACAGUACCUUCAGGUUCCUUCUCACACCGAGAGAAGCCCAGUAUUUUCUAUCAACAGGAGUGGCCAGAUAGUUAUGCAACUGAA	0.446
AGACAUUUUAAGGACCUCAGGUUCAUUAAAAAGGACUUAGAACUUUUCUCAAAUCCAUUCCGCUUUAAACCGGAAUAUGCGCCUAUUUCUGUAAGAGUGGAGCUAACAAAACUUCAGGCC	0.133
UUGCCUCCUCACUUUCCUGGGCAUUCCUCCGAGAUCUCCUGCCUCUCAACCUUUGCCCGUGCUAUUCUCUGUGCCUGGGACGAUACCUUUGACUCAUCUUCGACUGACCUAAUGGAGAGA	0.463

Series 5 — Sequence: B1 (RING1 RING domain); method: yeast two-hybrid; sample: yeast; setting: mostly zero background; reference: not given; direction: higher = stronger interaction
B1: RING1 RING domain (UniProt Q06587); chain SPRSLHSELMCPICLDMLKNTMTTKECLHRFCSDCIVTALRSGNKECPTCRKKLVSKRSLR
target	lacZ reporter activity
BIRC6 UBC core domain (UniProt Q9NR09)	0
UBE2Z UBC core domain (UniProt Q9H832)	0
UBE2D4 UBC core domain (UniProt Q9Y2X8)	0

A few entries again (series 1):
Sequence	E-score
ATCGGAAC	-0.131
AACAGTGG	-0.226
AAATGCGC	0.335
GATCAGAC	-0.075
TCTATAAA	-0.281
ACTCGCGC	0.401
CATTATAC	-0.00035
